Measured values pooled from the literature.
Lines come from different studies, so protocols differ. Numbers after ± are the reported error.
cas9: CRISPR-associated endonuclease Cas9/Csn1 (cas9, Streptococcus pyogenes serotype M1, UniProt Q99ZW2)
Chain of UniProt Q99ZW2 (whole entry, looked up): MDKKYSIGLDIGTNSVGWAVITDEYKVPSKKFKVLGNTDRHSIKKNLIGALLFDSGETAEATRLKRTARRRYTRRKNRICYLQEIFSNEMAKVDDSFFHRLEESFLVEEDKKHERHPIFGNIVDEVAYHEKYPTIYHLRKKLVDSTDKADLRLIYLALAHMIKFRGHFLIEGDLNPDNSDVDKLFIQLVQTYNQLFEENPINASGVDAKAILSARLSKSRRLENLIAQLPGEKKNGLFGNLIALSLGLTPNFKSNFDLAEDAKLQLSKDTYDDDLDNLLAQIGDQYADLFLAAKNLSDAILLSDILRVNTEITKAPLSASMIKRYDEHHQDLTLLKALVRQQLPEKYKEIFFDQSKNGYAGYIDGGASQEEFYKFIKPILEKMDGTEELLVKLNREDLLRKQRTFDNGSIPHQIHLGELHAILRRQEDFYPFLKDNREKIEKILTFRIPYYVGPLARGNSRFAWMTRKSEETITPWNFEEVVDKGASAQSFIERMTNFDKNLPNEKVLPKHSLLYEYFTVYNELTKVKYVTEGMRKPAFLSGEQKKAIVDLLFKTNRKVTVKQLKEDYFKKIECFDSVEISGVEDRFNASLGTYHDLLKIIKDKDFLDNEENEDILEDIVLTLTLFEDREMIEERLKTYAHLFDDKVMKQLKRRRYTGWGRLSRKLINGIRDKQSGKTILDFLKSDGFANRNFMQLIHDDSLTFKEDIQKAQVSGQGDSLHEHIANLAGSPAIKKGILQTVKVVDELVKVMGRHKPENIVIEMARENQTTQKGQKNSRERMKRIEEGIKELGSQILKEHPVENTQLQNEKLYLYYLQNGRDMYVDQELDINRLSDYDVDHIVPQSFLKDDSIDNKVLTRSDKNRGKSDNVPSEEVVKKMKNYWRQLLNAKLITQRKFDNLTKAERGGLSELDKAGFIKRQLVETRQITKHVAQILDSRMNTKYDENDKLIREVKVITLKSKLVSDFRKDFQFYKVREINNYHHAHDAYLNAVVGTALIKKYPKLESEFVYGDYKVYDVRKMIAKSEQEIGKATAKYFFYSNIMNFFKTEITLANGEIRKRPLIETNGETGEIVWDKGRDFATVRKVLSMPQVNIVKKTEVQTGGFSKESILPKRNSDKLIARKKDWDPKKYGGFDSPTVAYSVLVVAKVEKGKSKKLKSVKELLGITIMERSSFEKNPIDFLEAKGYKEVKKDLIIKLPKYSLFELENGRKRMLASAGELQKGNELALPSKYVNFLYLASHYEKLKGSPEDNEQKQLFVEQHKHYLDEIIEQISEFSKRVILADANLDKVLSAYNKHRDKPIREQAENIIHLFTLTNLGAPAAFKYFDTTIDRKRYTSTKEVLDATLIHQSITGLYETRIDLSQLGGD
ACHE: Acetylcholinesterase (ACHE, Homo sapiens, UniProt P22303)
Chain of UniProt P22303 (whole entry, looked up): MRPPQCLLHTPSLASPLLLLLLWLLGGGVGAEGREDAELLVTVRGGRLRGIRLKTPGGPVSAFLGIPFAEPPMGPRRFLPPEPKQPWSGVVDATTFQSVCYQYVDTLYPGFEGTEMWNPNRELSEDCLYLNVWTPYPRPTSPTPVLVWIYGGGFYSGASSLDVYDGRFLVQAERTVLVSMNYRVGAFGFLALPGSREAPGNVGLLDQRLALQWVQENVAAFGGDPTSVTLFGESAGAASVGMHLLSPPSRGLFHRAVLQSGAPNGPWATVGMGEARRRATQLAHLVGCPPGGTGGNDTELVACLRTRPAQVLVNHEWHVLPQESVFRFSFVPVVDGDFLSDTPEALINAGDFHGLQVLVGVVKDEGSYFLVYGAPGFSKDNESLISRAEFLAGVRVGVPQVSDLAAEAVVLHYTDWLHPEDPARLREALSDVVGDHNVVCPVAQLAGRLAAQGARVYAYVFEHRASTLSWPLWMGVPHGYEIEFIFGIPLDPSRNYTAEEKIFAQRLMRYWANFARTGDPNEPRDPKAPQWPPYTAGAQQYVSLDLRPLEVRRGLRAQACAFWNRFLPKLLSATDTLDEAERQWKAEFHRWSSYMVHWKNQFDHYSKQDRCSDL
Chain of UniProt P0A6L2 (whole entry, looked up): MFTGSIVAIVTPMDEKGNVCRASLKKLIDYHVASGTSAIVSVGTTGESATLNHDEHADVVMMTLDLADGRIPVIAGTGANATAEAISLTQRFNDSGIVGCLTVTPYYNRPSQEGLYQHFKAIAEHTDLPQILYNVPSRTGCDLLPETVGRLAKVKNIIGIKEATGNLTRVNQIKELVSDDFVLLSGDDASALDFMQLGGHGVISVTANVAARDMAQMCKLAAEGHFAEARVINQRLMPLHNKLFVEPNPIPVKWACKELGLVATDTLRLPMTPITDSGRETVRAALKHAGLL
Chain of UniProt P28223 (whole entry, looked up): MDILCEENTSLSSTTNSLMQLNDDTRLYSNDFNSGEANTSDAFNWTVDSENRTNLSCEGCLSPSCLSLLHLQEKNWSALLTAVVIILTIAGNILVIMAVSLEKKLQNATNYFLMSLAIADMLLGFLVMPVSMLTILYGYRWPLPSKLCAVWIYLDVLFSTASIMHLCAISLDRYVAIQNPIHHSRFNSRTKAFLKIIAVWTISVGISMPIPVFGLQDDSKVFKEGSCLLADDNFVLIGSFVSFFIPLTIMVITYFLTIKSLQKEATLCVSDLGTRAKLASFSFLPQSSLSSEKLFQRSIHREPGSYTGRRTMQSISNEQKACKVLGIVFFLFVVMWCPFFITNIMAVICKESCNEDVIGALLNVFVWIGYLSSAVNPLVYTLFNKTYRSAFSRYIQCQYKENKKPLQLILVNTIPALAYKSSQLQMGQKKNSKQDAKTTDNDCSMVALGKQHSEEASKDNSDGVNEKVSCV
Chain of UniProt Q12933 (whole entry, looked up): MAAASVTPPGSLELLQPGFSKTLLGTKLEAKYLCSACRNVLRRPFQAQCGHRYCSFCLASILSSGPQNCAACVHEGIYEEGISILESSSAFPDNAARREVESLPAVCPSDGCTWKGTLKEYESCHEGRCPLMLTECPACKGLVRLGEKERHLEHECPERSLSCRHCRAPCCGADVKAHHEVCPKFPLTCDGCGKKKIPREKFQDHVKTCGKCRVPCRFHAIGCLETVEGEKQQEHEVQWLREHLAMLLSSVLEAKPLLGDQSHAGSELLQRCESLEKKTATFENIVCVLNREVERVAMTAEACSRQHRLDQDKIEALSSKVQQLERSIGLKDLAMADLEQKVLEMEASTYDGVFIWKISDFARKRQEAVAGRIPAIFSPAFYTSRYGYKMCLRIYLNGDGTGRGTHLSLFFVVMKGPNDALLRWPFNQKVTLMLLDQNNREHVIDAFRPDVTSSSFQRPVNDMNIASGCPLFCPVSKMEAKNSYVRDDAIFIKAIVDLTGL
Chain of UniProt Q9BV23 (whole entry, looked up): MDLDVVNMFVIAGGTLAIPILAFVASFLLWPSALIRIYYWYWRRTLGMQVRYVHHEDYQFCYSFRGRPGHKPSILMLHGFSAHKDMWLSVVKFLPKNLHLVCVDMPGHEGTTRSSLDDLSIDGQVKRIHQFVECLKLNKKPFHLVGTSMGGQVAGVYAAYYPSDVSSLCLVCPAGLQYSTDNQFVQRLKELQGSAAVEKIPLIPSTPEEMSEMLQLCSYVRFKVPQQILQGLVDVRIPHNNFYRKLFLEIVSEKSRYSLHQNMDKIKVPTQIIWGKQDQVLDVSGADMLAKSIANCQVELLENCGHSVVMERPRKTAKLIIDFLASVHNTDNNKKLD
Chain of UniProt P62593 (whole entry, looked up): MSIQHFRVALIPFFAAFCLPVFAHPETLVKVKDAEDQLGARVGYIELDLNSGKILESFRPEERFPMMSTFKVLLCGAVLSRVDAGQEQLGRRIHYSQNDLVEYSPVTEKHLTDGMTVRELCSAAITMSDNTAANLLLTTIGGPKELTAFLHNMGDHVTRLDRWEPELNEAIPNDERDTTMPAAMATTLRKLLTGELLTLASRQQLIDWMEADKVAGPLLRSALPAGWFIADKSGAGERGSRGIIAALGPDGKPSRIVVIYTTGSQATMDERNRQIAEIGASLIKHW

COc1cc(NS(C)(=O)=O)ccc1Nc1c2ccccc2nc2ccccc12 — IC50 (cas9; circular plasmid substrate; Streptococcus pyogenes): 100 to 200 µM
Cc1c2ccncc2c(C)c2c1[nH]c1ccccc12 — IC50 (Beta-lactamase TEM (bla, Escherichia coli, UniProt P62593); inhibitor): > 30 µM
COc1cccc(C2c3ccc(OS(=O)(=O)c4ccc(C)cc4)cc3Oc3nc4c(c(N)c32)CCCC4)c1 (stereo not drawn) — IC50 (ACHE; enzyme activity, inhibitor): 2.62 µM
CC(C)C[C@H](NC(=O)[C@@H](N)CCC(=O)O)C(=O)N1CCC[C@H]1C(=O)N[C@@H](CC(=O)O)C(=O)N[C@@H](CCC(=O)O)C(=O)N[C@@H](Cc1ccccc1)C(=O)N[C@H](C(=O)N[C@H](C(=O)N[C@H](C(=O)N[C@H](C(=O)N[C@H](C(=O)O)C(C)C)[C@@H](C)O)C(C)C)C(C)C)C(C)C — IC50 (HLA class I histocompatibility antigen, B alpha chain, allele B*18:01 (Homo sapiens, UniProt P01889); peptide-MHC binding, radioligand competition binding): 1.13 µM
C[C@H]1COCCN1c1nc(NCc2cccnc2C(F)(F)F)c2cccnc2n1 — IC50 (human NMDA receptor; agonist mode): > 100 µM
COc1cc(Nc2ncc(F)c(Nc3ccc4c(n3)NC(=O)C(C)(C)O4)n2)cc(OC)c1OC — IC50 (ACAT; enzyme activity, inhibitor; intestine): > 10 µM
NCc1ccc(S(N)(=O)=O)cc1 — IC50 (Gag polyprotein, nucleocapsid protein p7 (gag, Human immunodeficiency virus type 1 group M subtype B, UniProt P04591); NCp7-RNA binding, AlphaScreen; HIV-1; added: 25 nM NCp7, 12.5 nM RNA): 16.1 µM
COc1cccc2c1C(=O)c1c(O)c3c(c(O)c1C2=O)C[C@@](O)(C(=O)CO)C[C@@H]3O[C@H]1C[C@H](N)[C@H](O)[C@H](C)O1 — IC50 (cas9; circular plasmid substrate; Streptococcus pyogenes): 10 to 20 µM
CCCCCCCCCC(=O)CC(=O)N[C@H]1CCOC1=O — IC50 (expR (Pectobacterium carotovorum, UniProt Q4KS34)): 0.6 µM
O=C(O)c1cccc(C(=O)O)n1 — IC50 (dapA (Escherichia coli K-12, UniProt P0A6L2); enzyme activity, inhibitor; 37 °C): 21200 µM
COc1ccccc1C1c2ccc(OS(=O)(=O)c3ccc(C)cc3)cc2Oc2nc3c(c(N)c21)CCCC3 (stereo not drawn) — IC50 (ACHE; enzyme activity, inhibitor): 1.03 µM
COc1cc(C(=O)N2CC[C@@H](O)[C@@H](N)C2)cc2nc(-c3cc4ccccc4n3CC3CC3)n(C)c12 — IC50 (HTR2A (Homo sapiens, UniProt P28223); intracellular calcium, antagonist, luminescence): 12.6 µM
O=C(OC(C(F)(F)F)C(F)(F)F)N1CCN(Cc2cccc(Oc3ccccc3)c2)CC1 — IC50 (ABHD6 (Homo sapiens, UniProt Q9BV23); enzyme activity, inhibitor; added: FP-biotin 1 µM): 0.0513 µM
CCOP(=S)(OCC)SCSCC — IC50 (ACHE; enzyme activity, inhibitor): 185 ± 26.8 µM
C[C@H]1CN(c2n[nH]c3nc(N[C@H]4CC[C@H](NS(=O)(=O)CCC(F)(F)F)CC4)ncc23)CCO1 — IC50 (TNF receptor-associated factor 2 (Homo sapiens, UniProt Q12933); biochemical): ≥ 20 µM

Repeated from above:
C[C@H]1CN(c2n[nH]c3nc(N[C@H]4CC[C@H](NS(=O)(=O)CCC(F)(F)F)CC4)ncc23)CCO1 — IC50 (TNF receptor-associated factor 2 (Homo sapiens, UniProt Q12933); biochemical): ≥ 20 µM
